Measured values from different studies.
Parts stem from different laboratories: compare values within a part only.

Set 1 — method: RNA Bind-n-Seq; form: RNA; sample: in vitro; tested at: 200 nM; notes: whole 134-nt RNA, ends assumed; added: 150 mM KCl; baseline: input library; reading: higher = stronger binding
Target: Ras GTPase-activating protein-binding protein 1, full length (G3BP1, Homo sapiens, UniProt Q13283)
Sequence of UniProt Q13283 (whole entry, looked up): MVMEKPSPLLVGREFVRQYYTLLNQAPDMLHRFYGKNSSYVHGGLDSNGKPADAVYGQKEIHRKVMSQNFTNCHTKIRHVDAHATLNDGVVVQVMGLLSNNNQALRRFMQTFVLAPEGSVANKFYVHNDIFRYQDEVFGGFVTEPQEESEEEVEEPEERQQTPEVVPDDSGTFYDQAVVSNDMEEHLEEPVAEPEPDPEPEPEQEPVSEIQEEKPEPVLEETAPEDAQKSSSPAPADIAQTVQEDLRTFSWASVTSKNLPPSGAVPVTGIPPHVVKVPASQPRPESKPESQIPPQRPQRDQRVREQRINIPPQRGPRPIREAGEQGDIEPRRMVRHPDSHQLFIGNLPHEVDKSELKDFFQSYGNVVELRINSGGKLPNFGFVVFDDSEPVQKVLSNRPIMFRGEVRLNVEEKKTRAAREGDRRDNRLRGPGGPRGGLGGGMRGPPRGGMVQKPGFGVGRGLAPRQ
All sequences stand within: GGGAGUUCUACAGUCCGACGAUC … UGGAAUUCUCGGGUGUCAAGG
Sequence | log2 enrichment
CACAGACAACACGCACCCACACAGACACAGAGGGAAGGGGUUGGGAUGAGGACAGGGUGCACAGCAGGGCGGGGUAGGACCCCAGCCCCU | 1.67
UCCUGUGCUACACAUCGUAUGUACCGAAUCAAAUUUUUUUAAACCCAAAUUUUUUUAAAAAAGUAUUAUGUUACGCCGUUCGGAUCUGCA | 0.0216
CUCAAGUCCUGUGCUACACAUCGUAUGUACCGAAUCGGGGCCGGGGCCGGCCGGAAAGUAUUAUGUUACGCCGUUCGGAUCUGCACUUCC | -0.513
AGUCCUGUGCUACACAUCGUAUGUACCGAAUCGGGAAAAAGGAAAAAGGAAAAAGGGAAAGUAUUAUGUUACGCCGUUCGGAUCUGCACU | -0.857
CCUGUGCUACACAUCGUAUGUACCGAAUCGGGGAAAAAAGGAAAAAAGGGGAAAAAAGGGGAAAGUAUUAUGUUACGCCGUUCGGAUCUG | -0.403
UCGGAUGGCUUCGCAUUUCCCCAAUACCCCAUUAAACCGUAUCAUCUGAAGAGGAUCCACAGAGCUGUCUUACAUGGUAAUCUAGAGAAA | -0.532
GUCCUGUGCUACACAUCGUAUGUACCGAAUCGGGAAAAAGGGAAAAAGGGUUUUUGGGAAAGUAUUAUGUUACGCCGUUCGGAUCUGCAC | -0.526
CAAGUCCUGUGCUACACAUCGUAUGUACCGAAUCGGGGCCGGGGCCGGGCCGGGGAAAGUAUUAUGUUACGCCGUUCGGAUCUGCACUUC | -0.00552
UCAAGUCCUGUGCUACACAUCGUAUGUACCGAAUCGGGCCCGGCCCGGCCCGGGGAAAGUAUUAUGUUACGCCGUUCGGAUCUGCACUUC | -0.947
AGUCCUGUGCUACACAUCGUAUGUACCGAAUCGGGGUUUGGGGAGGGGUUUUUGGGGAAAGUAUUAUGUUACGCCGUUCGGAUCUGCACU | 0.234
CCUGUGCUACACAUCGUAUGUACCGAAUCGGGUUUUUGGGUUUUUUUGGGUUUUUUUGGGAAAGUAUUAUGUUACGCCGUUCGGAUCUGC | -0.798
UGGGAGGUGGAUUUUGUUUAUUUUUUUAGCUCAUUUCCAGCGGUGGGAAUUUUUUUUUAAUAUGUGUCAUGAAUAAAGUUGUUUUUGAAA | -0.0529
CAAGUCCUGUGCUACACAUCGUAUGUACCGAAUCGGGGUUUGGUUUGGGGUUUGGAAAGUAUUAUGUUACGCCGUUCGGAUCUGCACUUC | -0.311
CCUCAAGUCCUGUGCUACACAUCGUAUGUACCGAAUCGGGGUGGGUGGUGGGAAAGUAUUAUGUUACGCCGUUCGGAUCUGCACUUCCAG | 0.924

Set 2 — method: protein binding microarray; form: double-stranded DNA, one strand shown; sample: in vitro; tested at: not given; baseline: not given; reading: higher = stronger binding
Target: Histone acetyltransferase KAT6A, both winged helices, GST fusion (KAT6A, Homo sapiens, UniProt Q92794, residues 1-181)
Notes: 8-mer, flanks averaged, mean of 2 arrays, mostly near background
Construct (chain): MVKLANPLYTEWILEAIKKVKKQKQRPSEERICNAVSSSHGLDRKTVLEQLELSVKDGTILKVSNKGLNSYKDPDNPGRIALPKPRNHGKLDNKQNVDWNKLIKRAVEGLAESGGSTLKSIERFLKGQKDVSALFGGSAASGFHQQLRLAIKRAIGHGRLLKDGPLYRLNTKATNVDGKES
Sequence | E-score
ATAGAACC | -0.0825
GAGTGGAA | -0.12
AACACTCA | -0.0461
AACATTGT | 0.0719
AGATGATC | -0.0333
CGTCCAAG | 0.136
TCACACGA | -0.0846
CGCAAGCC | 0.176
ATAATATA | -0.0185
ACCCGAGA | -0.0237
CGTTGGCC | 0.1
AGCAGAGA | -0.172
AACATGTG | -0.00439
TCCTCCAA | -0.267
CCCGACAA | 0.116
AAGGAGGC | -0.119
AAACGATT | -0.0117
CCGCACTA | 0.103
CCGCCGTA | 0.359
ACTCAAAA | -0.093
CGTTCTTA | 0.029
CGTTCTAG | -0.0756
ACGATCAA | -0.02
CTTCGTTA | -0.0197
CAGCTCAG | -0.123

Set 3 — method: protein-binding microarray; form: double-stranded DNA, one strand shown; sample: in vitro; tested at: 2200 nM top; notes: 60-bp whole probe; added: salmon DNA 0.4 mg/ml; baseline: random background probes; reading: higher = stronger binding; all sequences stand within: GCCTAGCAC … GTCTTGATTCGCTTGACGCTGCTG
Target: Interferon regulatory factor 7, full length, phosphomimetic (IRF7, Homo sapiens, UniProt Q92985, residues 1-503, S471D/S472D/S475D/S476D/S477D/S483D/S484D/S487D)
Sequence of UniProt Q92985 (whole entry, unmodified, looked up): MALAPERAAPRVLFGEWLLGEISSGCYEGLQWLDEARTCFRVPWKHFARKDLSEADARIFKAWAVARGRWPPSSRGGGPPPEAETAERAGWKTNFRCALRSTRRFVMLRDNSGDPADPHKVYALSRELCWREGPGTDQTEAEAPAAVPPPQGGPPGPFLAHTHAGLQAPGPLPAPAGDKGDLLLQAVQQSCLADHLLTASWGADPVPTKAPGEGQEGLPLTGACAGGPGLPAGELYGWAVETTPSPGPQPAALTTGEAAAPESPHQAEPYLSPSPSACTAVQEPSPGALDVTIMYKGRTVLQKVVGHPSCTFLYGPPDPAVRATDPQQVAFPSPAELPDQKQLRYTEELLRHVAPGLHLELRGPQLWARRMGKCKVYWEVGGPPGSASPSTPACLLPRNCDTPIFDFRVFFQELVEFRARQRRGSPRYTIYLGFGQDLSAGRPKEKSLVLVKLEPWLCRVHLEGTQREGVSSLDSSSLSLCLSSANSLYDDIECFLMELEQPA
Sequence | fitted relative affinity
GACGGTCTCGGTCTCGGGTCGTGCTAG | 0.318 z-score
GACGAACTGGGGACTGGACACGTGCTA | -0.436 z-score
TTAGGTCCCCTACTGCTTTAGTGCTAG | 0.412 z-score
TTAGGTTTCGGTCTTGGTTAGTGCTAG | 6.55 z-score
TTAGGTCTCGGACTGGCTTAGTGCTAG | -0.204 z-score
TCACACATATAATTTTGTACTGTGCTA | 0.426 z-score
TTAGATATCGGGAGTGGATTAGTGCTA | -0.235 z-score
GACGGTTTCGGAGTGGGGACGTGCTAG | 2.77 z-score
TGTGGACCTTGGGAGATTTCGTGCTAG | -0.668 z-score
TTAGGTATCCACTTTCGGTTAGTGCTA | 8.72 z-score
TCATCAACCAGTTTTCTTACTGTGCTA | 0.917 z-score
TAGATCGTCCCTTTGAGAGGGTGCTAG | -0.044 z-score
GACGGACTAGGTTTCGGGACGTGCTAG | 1.93 z-score
TACGGTTTCGGGACTGGGGACGTGCTA | 4.04 z-score
GACGGTTTAGACTTTCGGGACGTGCTA | 2.75 z-score
TGAGGTATCGACTATCGGTTAGTGCTA | 0.0906 z-score
GAGGGTCTCGGTTTCGGGACGTGCTAG | 3.14 z-score
CTCGTTTACATTTTCCAAATGTGCTAG | 3.66 z-score
CTGGTTTTACTTTCTATCTCGTGCTAG | 5.11 z-score
GAGGATTTCGGGACTGGAGACGTGCTA | 0.575 z-score
TTAGCTTTCAGTTCCGATTAGTGCTAG | 3.48 z-score
GACGGACTGGGGTACCGGGACGTGCTA | -1.41 z-score
TTACGTATCGGGACTGGGTTAGTGCTA | 1.23 z-score
TTAAAACTGAGACTGGATTAGTGCTAG | -0.996 z-score
TTAGGTATCCATCTCCTTTAGTGCTAG | 0.904 z-score

Set 4 — method: RNA Bind-n-Seq; form: RNA; sample: in vitro; tested at: 365 nM; baseline: no-protein control; reading: higher = stronger binding
Target: RNA binding protein fox-1 homolog 2, RRM domain, GST-SBP tag (RBFOX2, Homo sapiens, UniProt O43251-10, residues 100-194)
Notes: natural RNA segment, single round, ends assumed
All sequences stand within: GGGAGUUCUACAGUCCGACGAUC … UGGAAUUCUCGGGUGCCAA
Target sequence (chain): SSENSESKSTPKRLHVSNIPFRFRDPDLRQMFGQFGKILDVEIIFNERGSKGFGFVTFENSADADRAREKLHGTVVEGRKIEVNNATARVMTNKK
Sequence | RBNS enrichment (R)
GAGGGUUUCGCUAGAACCAUUUUGUGAUUGCCACCAGCCAAGAUGGACUUUCUUCCCACCCCUUGCAGGGAGGUGUGAGCAGGAGACCCCUAGGGUGCCACUGAAUAAGA | 0.462
GAAAGAACAUAUUAAAACUUCUUUCCCUUGCGAUUUUUUUGGGGGAGGGGGGUUAGCAUUUCCACUUUCAGUUGAGUAGCAUUUUGUAGAAUAAAAUGAAUUAAGAUUGA | 0.427
AUUCCUUAGAAGCAAGGACCUGGUCCAGUGGCGGUGCCUCAGUUCACACUCCCUCUGACGGACGGACGGACGUCAGUGCCCUCUCCCUUCUCCUUGUGAAGCCAUAAGCC | 0.401
UCGAUUGUGGUGUCUUGGCGACUAAUCAGUUUCAUUGUAUAACCAGCCAGAUCUUCACCUCUUCUUCCGUACGUGACCGCAAGUCCCUGGAACGAGGCAUCUGGAGCUUC | 0.276
AAAGACUGCAACAGAAACUCCCCAGCCUAGCACUCCAGAGUCCAAGGGAAGCCACCUUCCAAGAACUGGAACAUGUGCAUCUUUUGUGCCACCUUGUACAAAGCCAGCUG | 0.377
UGUGUUUUCGUCACAGGAGUCUUUGUAAUGCUUGUACAGUUGAUGUCGAUGCUCACUGCUUCUGCUUUUUCUUUCUUUUUAUUUUAAAUCUGAAGGUUCUGGUAACCUGU | 0.482
CCCCAGUAUUGAUCCCCCACCCUUUUUUGAGACAGGGCAUCCCAGCUGGCGACAACCCUCCUUUCUGCCUUUGACACUCAUGUGCUGGGACUACAGGCACACACCAGUAC | 0.876
CUUGCUGGGCAUGCUUUUAAGUCUGUGAGAUCAUUUUGCUUCAUUAAGUUGACCAUUCUUUUUGUUUUUCUAAGACACAGAAAUGUAUUUAAUAAAACCUUCAAGAGAGA | 0.971
AUCAGACCCUUCAAGCAGCCUGGCUGGGGCCCAGGACUGAGUCUGGGGUCAGCUUUCACGGUCGCUUUUCCCUUCCUCACCACCCACCACAGCCCACCUUGCAUGCAUGG | 3.96
AGAACCUUAGUGAAAGGUUCUCAGUCUCUGAGAGUGGACCCUAAUUAACAUAAAGACCAUUCAUCAGCGAAUAACUACUGAGCAACUCUAGUGUGCCAGCACAGGCCAGA | 0.326
CAAAACUGACCAAGGCUAUUCAGCAGUGAACCAGUGACCAAAGAAUUAAUUACCCUCCGUUUCCCACAUCCCCACUCUCUAGGGGAUUAGCUUGUGCGUGUCAAAAGAAG | 1.08
AAUUUUUUUCAUAUGUAUUCUGUGCCAUACUAUUGUUAAAAUGAACUGUUGCUAUUGUGAGAUGGAUUUUAACUGACCUAUUAAGGGUUUCUUUCGAAUGGCACUACUUU | 0.629

Some of these lines once more (set 3):
Sequence | fitted relative affinity
CTGGTTTTACTTTCTATCTCGTGCTAG | 5.11 z-score
TCACACATATAATTTTGTACTGTGCTA | 0.426 z-score
TCATCAACCAGTTTTCTTACTGTGCTA | 0.917 z-score
GAGGGTCTCGGTTTCGGGACGTGCTAG | 3.14 z-score
